Measured values gathered from unrelated publications.
Each line is one published result; not all experiments were run side by side.
Alpha-carbonic anhydrase: Alpha-carbonic anhydrase (Enterococcus faecium, UniProt Q3XYE8)
Sequence of UniProt Q70CQ1 (whole entry, looked up): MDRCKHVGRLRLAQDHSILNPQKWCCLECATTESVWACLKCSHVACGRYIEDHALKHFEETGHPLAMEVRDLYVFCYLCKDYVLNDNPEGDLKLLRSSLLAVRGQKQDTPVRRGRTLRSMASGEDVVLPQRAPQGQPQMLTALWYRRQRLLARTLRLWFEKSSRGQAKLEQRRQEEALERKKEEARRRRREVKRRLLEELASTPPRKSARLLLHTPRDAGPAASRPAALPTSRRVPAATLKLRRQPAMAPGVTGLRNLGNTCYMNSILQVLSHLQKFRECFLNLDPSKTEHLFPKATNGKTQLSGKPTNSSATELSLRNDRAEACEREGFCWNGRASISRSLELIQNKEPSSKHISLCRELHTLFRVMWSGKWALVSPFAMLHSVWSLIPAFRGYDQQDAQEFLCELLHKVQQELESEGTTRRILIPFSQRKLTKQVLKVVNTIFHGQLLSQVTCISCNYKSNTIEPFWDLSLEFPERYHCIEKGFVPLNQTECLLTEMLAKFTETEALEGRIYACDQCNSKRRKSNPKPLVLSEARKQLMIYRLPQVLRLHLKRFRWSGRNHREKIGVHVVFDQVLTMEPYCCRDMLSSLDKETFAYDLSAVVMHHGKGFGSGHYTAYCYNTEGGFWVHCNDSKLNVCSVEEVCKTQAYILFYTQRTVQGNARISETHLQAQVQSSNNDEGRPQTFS
Sequence of UniProt Q53GS9 (whole entry, looked up): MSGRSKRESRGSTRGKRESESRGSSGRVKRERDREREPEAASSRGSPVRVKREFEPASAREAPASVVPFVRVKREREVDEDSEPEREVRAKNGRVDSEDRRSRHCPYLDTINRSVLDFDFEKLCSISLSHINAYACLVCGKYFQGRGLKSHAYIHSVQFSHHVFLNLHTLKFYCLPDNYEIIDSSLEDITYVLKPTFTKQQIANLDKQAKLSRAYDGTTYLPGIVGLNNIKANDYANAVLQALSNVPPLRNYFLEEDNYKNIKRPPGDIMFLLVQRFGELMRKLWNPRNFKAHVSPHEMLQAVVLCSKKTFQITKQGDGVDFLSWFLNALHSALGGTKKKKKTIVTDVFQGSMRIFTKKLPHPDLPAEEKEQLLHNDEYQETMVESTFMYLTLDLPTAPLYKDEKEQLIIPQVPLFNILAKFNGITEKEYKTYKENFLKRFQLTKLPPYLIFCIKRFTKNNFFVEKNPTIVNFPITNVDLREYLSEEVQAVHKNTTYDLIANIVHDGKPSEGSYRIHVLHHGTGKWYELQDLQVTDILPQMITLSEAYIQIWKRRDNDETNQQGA

| Structure (SMILES) | target or system | assay | test system | setting | scale | quantity | value |
| --- | --- | --- | --- | --- | --- | --- | --- |
| Nc1cc(C(F)(F)F)c(-c2cc(N3CCOCC3)nc(N3CCOCC3)n2)cn1 | NLRP3 inflammasome (mouse) |  | mouse BMDM | 10 µM |  | inhibition | 18.2% |
| Nc1ncnc2c1ncn2[C@@H]1O[C@H](COP(=O)(O)OS(=O)(=O)O)[C@@H](OP(=O)(O)O)[C@H]1O |  | binding, equilibrium dialysis LC-MS |  | 5 µM, thermostabilized A2AR-BRIL construct | baseline: no-protein control, direction not given | z-scored log2 fold change | -0.371 |
| COc1cc(Nc2c(C#N)cnc3cc(OCCCN4CCN(C)CC4)c(OC)cc23)c(Cl)cc1Cl | iCell Cardiomyocytes (hiPSC-derived) | CellTiter-Glo |  | concentration not given, 24 h | baseline: control | ATP level | 91.1% |
| NC(=O)c1cnc2[nH]ccc2c1N[C@@H]1[C@@H]2CC3C[C@H]1C[C@@](O)(C3)C2 |  | CD8+ CD28+ naive T cells, flow cytometry | Japanese humans, peripheral blood | 20 mg single dose | baseline: baseline | percent change | -0.15% |
| O=C(O)CCn1nnc(-c2ccccc2)n1 | Ubiquitin carboxyl-terminal hydrolase 49, ZnF-UBD domain (USP49, Homo sapiens, UniProt Q70CQ1) |  |  |  |  | Kd | > 1000 µM |
| CCN(CC)CCNC(=O)c1c(C)[nH]c(/C=C2\C(=O)Nc3ccc(F)cc32)c1C | iCell Cardiomyocytes (hiPSC-derived) | xCELLigence Cardio impedance |  | concentration not given, 2 h | baseline: control | beat amplitude | 113% |
| CC(C)NCC(O)c1ccc(O)c(O)c1 (stereo not shown) |  |  | ventricular cardiomyocytes, C57BL/6 mouse | dose not given, 0.272 s |  | sarcomere length | 1.68 µm |
| Cn1cc(-c2ccc(-c3cncc(Cl)c3N3CCC4(CCNC4=O)CC3)cc2)cn1 | COLO 205 | microarray, measured: ADM |  | concentration not given, 2 h | baseline: untreated cells | fold change in expression | 2.41 |
| C[C@@H](Oc1cc(-n2cnc3ccc(CN4CCN(C)CC4)cc32)sc1C(N)=O)c1ccccc1C(F)(F)F | iCell Cardiomyocytes (hiPSC-derived) | xCELLigence Cardio impedance |  | concentration not given, 2 h | baseline: control | beat rate | 79.4% |
| C=CCn1c(=O)c2cnc(Nc3ccc(N4CCN(C)CC4)cc3)nc2n1-c1cccc(C(C)(C)O)n1 | NLRP3 inflammasome (mouse) |  | mouse BMDM | 10 µM |  | inhibition | -12.2% |
| CSc1nc(C)c(CCC(=O)O)c(=O)[nH]1 | Ubiquitin carboxyl-terminal hydrolase 39, ZnF-UBD domain (Homo sapiens, UniProt Q53GS9) |  |  |  |  | Kd | 389 µM |
| C=C(OP(=O)(O)O)C(=O)O |  | binding, equilibrium dialysis LC-MS |  | 5 µM, thermostabilized A2AR-BRIL construct | baseline: no-protein control, direction not given | z-scored log2 fold change | 0.0257 |
| CCc1cnn2c(NCc3ccc[n+]([O-])c3)cc(N3CCCC[C@H]3CCO)nc12 | NLRP3 inflammasome (mouse) |  | mouse BMDM | 10 µM |  | inhibition | 52.5% |
| CC(O)(CC(=O)O)CC(=O)SCCNC(=O)CCNC(=O)[C@H](O)C(C)(C)COP(=O)(O)OP(=O)(O)OC[C@H]1O[C@@H](n2cnc3c(N)ncnc32)[C@H](O)[C@@H]1OP(=O)(O)O (stereo partly shown) |  | binding, equilibrium dialysis LC-MS |  | 5 µM, thermostabilized A2AR-BRIL construct | baseline: no-protein control, direction not given | z-scored log2 fold change | -0.269 |
| C[C@@H](Oc1cc(-c2cnn(C3CCNCC3)c2)cnc1N)c1c(Cl)ccc(F)c1Cl | iCell Cardiomyocytes (hiPSC-derived) | CellTiter-Glo |  | concentration not given, 24 h | baseline: control | ATP level | 108% |
| Nc1ncnc2c1ncn2[C@@H]1O[C@H](COP(=O)(O)O)[C@@H](O)[C@H]1O |  | binding, equilibrium dialysis LC-MS |  | 5 µM, thermostabilized A2AR-BRIL construct | baseline: no-protein control, direction not given | z-scored log2 fold change | 0.215 |
| Cc1ncc(NC(=O)c2ccc(CN3CCN(C)CC3)c(C(F)(F)F)c2)cc1Nc1nccc(-c2cccnc2)n1 | NLRP3 inflammasome (mouse) |  | mouse BMDM | 10 µM |  | inhibition | 11.2% |

| Structure (SMILES) | target or system | assay | test system | setting | scale | quantity | value |
| --- | --- | --- | --- | --- | --- | --- | --- |
| Cn1ccc(=O)c(C(N)=O)c1 |  | binding, equilibrium dialysis LC-MS |  | 5 µM, thermostabilized A2AR-BRIL construct | baseline: no-protein control, direction not given | z-scored log2 fold change | 0.088 |
| NS(=O)(=O)c1nnc(NC(=O)C2CCCC3(CCCCC3)O2)s1 (stereo not shown) | Alpha-carbonic anhydrase | CO2 hydration, inhibitor, stopped-flow kinetics |  |  |  | Ki | 0.0426 µM |
| S=C(NCc1ccc2c(c1)OCO2)N1CCN(c2ncnc3c2oc2ccccc23)CC1 | NLRP3 inflammasome (mouse) |  | mouse BMDM | 10 µM |  | inhibition | -9.37% |
| CNC(=O)c1ccccc1Sc1ccc2c(/C=C/c3ccccn3)n[nH]c2c1 | iCell Cardiomyocytes (hiPSC-derived) | CellTiter-Glo |  | concentration not given, 24 h | baseline: control | ATP level | 99.2% |
| Oc1ccccc1-c1n[nH]cc1-c1ccnc2ccccc12 | orf19.6492 Candida albicans | kinase binding, MIB/MS competition | Candida albicans lysate | 10 µM | baseline: DMSO | log2 fold change | 0.33 |
| COc1cc(Nc2ncc(F)c(Nc3ccc4c(n3)N(COP(=O)(O)O)C(=O)C(C)(C)O4)n2)cc(OC)c1OC | NLRP3 inflammasome (mouse) |  | mouse BMDM | 10 µM |  | inhibition | 29.2% |
| N#CC[C@H](C1CCCC1)n1cc(-c2ncnc3[nH]ccc23)cn1 | iCell Cardiomyocytes (hiPSC-derived) | cellular impedance |  | concentration not given, 24 h | baseline: control | cell index | 99.9% |
| C[C@]1(O)C[C@@H](c2nc(-c3ccc4ccc(-c5ccccc5)nc4c3)c3c(N)nccn32)C1 | NLRP3 inflammasome (mouse) |  | mouse BMDM | 10 µM |  | inhibition | -30.6% |
| OC(CCN1CCCCC1)(c1ccccc1)C1CC2C=CC1C2 (stereo not shown) |  | resting-state EEG | healthy elderly humans | oral, 2 mg, eyes open, LS mean |  | EEG power, delta, Fz-Cz | 8.5 µV² |
| Nc1nc2c(ncn2[C@@H]2O[C@H](COP(=O)(O)OP(=O)(O)O)[C@@H](O)[C@H]2O)c(=O)[nH]1 |  | binding, equilibrium dialysis LC-MS |  | 5 µM, thermostabilized A2AR-BRIL construct | baseline: no-protein control, direction not given | z-scored log2 fold change | -5.6 |
| NS(=O)(=O)c1nnc(NC(=O)CN2CCC3(CC2)COC3)s1 | Alpha-carbonic anhydrase | CO2 hydration, inhibitor, stopped-flow kinetics |  |  |  | Ki | 0.0124 µM |
| C/C=C/C(=O)SCCNC(=O)CCNC(=O)[C@H](O)C(C)(C)COP(=O)(O)OP(=O)(O)OC[C@H]1O[C@@H](n2cnc3c(N)ncnc32)[C@H](O)[C@@H]1OP(=O)(O)O |  | binding, equilibrium dialysis LC-MS |  | 5 µM, thermostabilized A2AR-BRIL construct | baseline: no-protein control, direction not given | z-scored log2 fold change | -3.73 |
| Cc1ncc(CO)c(CO)c1O | NLRP3 inflammasome (mouse) |  | mouse BMDM | 10 µM |  | inhibition | 35.3% |
| Cc1[nH]c(/C=C2\C(=O)Nc3ccc(F)cc32)c(C)c1C(=O)NC[C@H](O)CN1CCOCC1 | iCell Cardiomyocytes (hiPSC-derived) | CellTiter-Glo |  | concentration not given, 24 h | baseline: control | ATP level | 90.1% |
| Nc1ncnc2c1ncn2[C@@H]1O[C@H](COP(=O)(O)OP(=O)(O)OP(=O)(O)OC[C@@H]2O[C@H](n3cnc4c(N)ncnc43)[C@@H](O)[C@H]2O)[C@@H](O)[C@H]1O |  | binding, equilibrium dialysis LC-MS |  | 5 µM, thermostabilized A2AR-BRIL construct | baseline: no-protein control, direction not given | z-scored log2 fold change | 1.06 |
| Cc1ccc(Nc2nccc(N(C)c3ccc4c(C)n(C)nc4c3)n2)cc1S(N)(=O)=O | iCell Cardiomyocytes (hiPSC-derived) | xCELLigence Cardio impedance |  | concentration not given, 2 h | baseline: control | beat rate | 95.7% |
| c1coc(-c2n[nH]cc2-c2ccnc3ccccc23)c1 | NPR1 (Candida albicans) | kinase binding, MIB/MS competition | Candida albicans lysate | 1 µM | baseline: DMSO | log2 fold change | -0.18 |

Repeated from above:
| Structure (SMILES) | target or system | assay | test system | setting | scale | quantity | value |
| --- | --- | --- | --- | --- | --- | --- | --- |
| CC(O)(CC(=O)O)CC(=O)SCCNC(=O)CCNC(=O)[C@H](O)C(C)(C)COP(=O)(O)OP(=O)(O)OC[C@H]1O[C@@H](n2cnc3c(N)ncnc32)[C@H](O)[C@@H]1OP(=O)(O)O (stereo partly shown) |  | binding, equilibrium dialysis LC-MS |  | 5 µM, thermostabilized A2AR-BRIL construct | baseline: no-protein control, direction not given | z-scored log2 fold change | -0.269 |
| C[C@@H](Oc1cc(-c2cnn(C3CCNCC3)c2)cnc1N)c1c(Cl)ccc(F)c1Cl | iCell Cardiomyocytes (hiPSC-derived) | CellTiter-Glo |  | concentration not given, 24 h | baseline: control | ATP level | 108% |
| Nc1ncnc2c1ncn2[C@@H]1O[C@H](COP(=O)(O)O)[C@@H](O)[C@H]1O |  | binding, equilibrium dialysis LC-MS |  | 5 µM, thermostabilized A2AR-BRIL construct | baseline: no-protein control, direction not given | z-scored log2 fold change | 0.215 |
| Cc1ncc(NC(=O)c2ccc(CN3CCN(C)CC3)c(C(F)(F)F)c2)cc1Nc1nccc(-c2cccnc2)n1 | NLRP3 inflammasome (mouse) |  | mouse BMDM | 10 µM |  | inhibition | 11.2% |
| Cn1ccc(=O)c(C(N)=O)c1 |  | binding, equilibrium dialysis LC-MS |  | 5 µM, thermostabilized A2AR-BRIL construct | baseline: no-protein control, direction not given | z-scored log2 fold change | 0.088 |
